Results gathered from unrelated publications.
A part holds a random share of what one study measured. Substitutions count along the parent as printed.

Block 1
Target: Histone acetyltransferase KAT6A, winged helix 1, GST fusion (KAT6A, Homo sapiens, UniProt Q92794, residues 1-85)
Method: protein binding microarray
Form: double-stranded DNA, one strand shown
Sample: in vitro
Tested at: not given
Notes: 8-mer, flanks averaged, mean of 2 arrays, mostly near background
Relative to: not given
Reading: higher = stronger binding
Measurement: E-score
Residues (chain): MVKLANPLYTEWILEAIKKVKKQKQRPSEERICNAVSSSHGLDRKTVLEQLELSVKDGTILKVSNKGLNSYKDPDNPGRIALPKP
CCGCATTA: 0.274
ATGTATCG: -0.0772
CAGCTTCC: 0.00707
CTCAGGAC: -0.111
ATGTATCC: -0.0208
AATGACCG: 0.103
CCGGAAGA: 0.121
ACAGGGCG: 0.239
GAAGTAAA: -0.236
ACGTAATA: 0.0387
GAAGAGCC: 0.172
ACATGACC: 0.0964
TCATTCAA: -0.166
AAACCCCG: 0.177
CAAGCCGA: 0.12
GGCGATCA: 0.136
CCTGAGAC: -0.197
AACGGCTA: 0.247
AACAGGTG: -0.281
GTAATCCA: -0.188
AAGTATTA: -0.215
AGTTACGG: 0.276
GGATATCC: -0.156
CTGAGCCA: 0.00169
GCGACCTA: 0.106

Block 2
Target: RNA binding protein fox-1 homolog 2, RRM domain, GST-SBP tag (RBFOX2, Homo sapiens, UniProt O43251-10, residues 100-194)
Method: RNA Bind-n-Seq
Form: RNA
Sample: in vitro
Tested at: 365 nM
Notes: natural RNA segment, single round, ends assumed
Relative to: no-protein control
Reading: higher = stronger binding
Measurement: RBNS enrichment (R)
All sequences stand within: GGGAGUUCUACAGUCCGACGAUC … UGGAAUUCUCGGGUGCCAA
Target sequence (chain): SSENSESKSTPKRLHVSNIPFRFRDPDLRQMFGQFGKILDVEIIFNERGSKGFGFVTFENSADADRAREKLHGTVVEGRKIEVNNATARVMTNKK
UGAAAGCUUCUUCCAGUCCCUGAUCUGGCUCAUUCCCCACCUUCAACUCCCACCUUACAUGUCUCACACUAUCCCAUGGUUGGCAUUACACUCACUCCUGUUCCCUUAUU: 0.836
ACCUGCAGCAGCAUGUCUGGCAAACUGAGUCGCCCUCCUGCCUCCAGCUCUCUGUUGAGCAGAGGGAAGGCAUGGGGGCAGGAAGAGAGCUGAGCAUUGAUGGGGAUGGG: 2.19
CAAAGUCUGUGCCACAUUCCUCACAGCAGGUGUGACUCUUUAAGACCAUGAUAGUGGAGUAAGGGAAAGAGUGAGAUGUAGCGCUCUGGAUGCUUAAAAAGUAAGUGCUU: 0.544
ACAGCUGACGGUUUCUCCCCGGACACUCGCCUACUAAGUACCCUUGGGGUGGUGCUGGGUCAUUACUUCUGAGCCCCAGCCCCAAUCCAGAGAAGCGCUGUUGCCCGCCC: 0.308
ACUGUUCCUUAAUACUGGCAUAAUGCUUCCAGGAAGUUUUUCUUUUUUAUAUUUAAAAUGUUACUUUUCUGUAUGAUGUGCAUGCAAGUUUACCGUAACUUUUCUUAAAC: 2.61
GACUGGGACAAAGGAGCCGUGAAACACGCAAGGAGCUUCUGGCUUCUCAGCUUUGAGACCUGGGCUCUUUGGAGCACAGAGAACUUUGAUUUUUAAGCUUCUACAGAUAU: 0.346
CUCACUGCAACUUCCACCUCCUGGGUUCCAGCAGUUCUCCUGCCUCAGCCUCCCAAGUAGCUGAGAUUACAGGCGCCUGCCACCCCACCUGGCUGAUUUUUGUAAUUUUA: 0.247
UUCCCUUUAGAAGCUUGAAGUUUGAUACUAUUGCUUUCCCCAUUAUAAGGAUUAUACAGUAUUAAUUAAUUAUAAGGCCCAAAGUUUGUUUUGGCAAAUAAAGUAUUAUU: 0.881
AAGAAGGAAUUGGUUGUCAUCUGGCAGUGUUGCGCGUCACAAGAGAGCCUGUAUAUAAAUUAAAAUAGUCAAGACAACACUGACCUUGCACUUGUACAUAACUAUACAGU: 0.581
UAUGUUUUCCAUUUUCUUUUGUCAGAGGUGAGCUUGAAUGUGAUUAUCUGUAAAUUUGCUCAAAUAAUAAGAUAAUGUACAACACUAAUAGCCAGAUAUGAGUUUAAACU: 0.943
UCAGUUGAGGCCAGGGUGGUCAGGGUGCAGAAUAAAUGCCAUCGAGCCUGUGGCUGGCCCUCUGCUGCUGUUCUCUCCCUCCAACCUGGCUGUUUCUUGCGGGGCAAGGG: 0.846
GACCAAAUUUUUUCUCAGUGUGUGUGUUUAUUCCUUAUAGGUGUAAAUGAGAAGACGUGUUUUUUUCCUUCACCGAUGCUCCAUCCUCGUAUUUCUUUUUCCUUGUAAAU: 1.9

Block 3
Target: Sal-like protein 4, full length isoform A (SALL4, Homo sapiens, UniProt Q9UJQ4, residues 1-1053)
Chain of UniProt Q9UJQ4 (whole entry, looked up): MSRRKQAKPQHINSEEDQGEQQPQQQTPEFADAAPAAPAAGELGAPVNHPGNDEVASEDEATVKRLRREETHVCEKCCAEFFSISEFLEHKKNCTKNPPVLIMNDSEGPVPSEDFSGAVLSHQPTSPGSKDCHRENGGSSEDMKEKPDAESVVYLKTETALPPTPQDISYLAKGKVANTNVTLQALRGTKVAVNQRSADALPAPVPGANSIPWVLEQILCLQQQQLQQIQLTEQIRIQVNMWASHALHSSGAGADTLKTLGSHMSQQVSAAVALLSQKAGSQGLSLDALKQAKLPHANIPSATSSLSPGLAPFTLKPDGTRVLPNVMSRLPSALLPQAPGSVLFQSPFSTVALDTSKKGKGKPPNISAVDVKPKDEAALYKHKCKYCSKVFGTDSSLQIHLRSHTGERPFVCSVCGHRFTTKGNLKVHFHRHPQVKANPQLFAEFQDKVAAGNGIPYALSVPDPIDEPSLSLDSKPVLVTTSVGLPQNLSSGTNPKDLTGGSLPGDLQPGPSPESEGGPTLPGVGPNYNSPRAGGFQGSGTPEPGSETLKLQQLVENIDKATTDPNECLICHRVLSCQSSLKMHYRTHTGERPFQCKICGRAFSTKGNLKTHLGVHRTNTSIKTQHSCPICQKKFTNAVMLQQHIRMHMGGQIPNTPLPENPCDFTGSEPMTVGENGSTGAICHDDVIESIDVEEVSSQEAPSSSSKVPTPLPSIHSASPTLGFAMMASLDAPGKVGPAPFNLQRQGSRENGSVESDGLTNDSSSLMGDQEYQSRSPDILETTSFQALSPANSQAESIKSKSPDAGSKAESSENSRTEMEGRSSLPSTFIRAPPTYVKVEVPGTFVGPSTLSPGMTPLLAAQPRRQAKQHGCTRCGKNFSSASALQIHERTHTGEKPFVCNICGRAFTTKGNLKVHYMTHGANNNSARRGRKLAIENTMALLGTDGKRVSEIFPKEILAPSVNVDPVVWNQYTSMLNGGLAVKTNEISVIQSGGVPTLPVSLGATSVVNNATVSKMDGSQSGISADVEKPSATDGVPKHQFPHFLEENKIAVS
Method: universal PBM
Form: double-stranded DNA, one strand shown
Sample: in vitro
Tested at: 600 nM
Notes: 8-mer, flanks averaged, mean of replicates
Reading: higher = stronger binding
Measurement: E-score
CCAGGTAC: -0.298
CTAACCGC: -0.185
AGCAGTTA: 0.0668
ACCTATAG: 0.114
AGTCCCCC: -0.319
ATGCGGAC: -0.113
CCGGCCTC: -0.343
ACTGTGAA: 0.0761
CGCCCCAC: -0.31
CGCATAGC: -0.106
AACTGCCC: -0.166
CATTAAGC: 0.026
CCCTAGTC: -0.194
GTACGCGA: -0.042
ATTAGATG: 0.351
TTATCAAA: 0.277
AGTCTTTA: 0.152
GTCATTGA: 0.173
ATCGGCCG: -0.235
CAGAGCCA: -0.125
CAAGTTGC: -0.0474
GGAAGGAA: -0.00881
GTCCACCA: -0.214
CACGGGCG: -0.341
CATCCAAA: 0.0309

Block 4
Target: ABI1, truncated, D143A, DHFR fusion (Arabidopsis thaliana)
Method: DHFR PCA, deep sequencing
Sample: yeast
Notes: methotrexate growth selection, single substitutions
Together with: (+)-ABA 200 µM
Relative to: wild-type fitted maximum
Reading: higher = stronger binding
Measurement: relative binding score
Starting sequence: PYL1, truncated, DHFR fusion (Arabidopsis thaliana); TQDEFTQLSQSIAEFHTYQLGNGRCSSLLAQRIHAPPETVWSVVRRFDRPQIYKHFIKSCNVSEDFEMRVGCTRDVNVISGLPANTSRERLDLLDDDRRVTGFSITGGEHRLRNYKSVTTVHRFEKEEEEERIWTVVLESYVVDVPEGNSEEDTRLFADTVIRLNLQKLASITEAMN
M176E: 99.8%
V121I: 98.5%
T160L: 94.5%
H55Y: 99.2%
N177A: 120%
R46W: 58.9%
Q7L: 98.2%
L82E: 5.48%
P83A: 93.6%
F56K: -2.49%
I162D: -7.02%
R46F: 31.3%
V43I: 103%
V121H: 9.23%
M176K: 103%
F56S: 10.7%

Block 5
Target: PABPC1L2, full length, GST fusion (mouse, UniProt A0ABA7IW68)
Method: RNAcompete
Form: RNA
Sample: in vitro
Tested at: 20 nM
Notes: 7-mer, probes averaged, single round
Relative to: mean of 7-mers
Reading: higher = stronger binding
Measurement: 7-mer Z-score
Residues (chain): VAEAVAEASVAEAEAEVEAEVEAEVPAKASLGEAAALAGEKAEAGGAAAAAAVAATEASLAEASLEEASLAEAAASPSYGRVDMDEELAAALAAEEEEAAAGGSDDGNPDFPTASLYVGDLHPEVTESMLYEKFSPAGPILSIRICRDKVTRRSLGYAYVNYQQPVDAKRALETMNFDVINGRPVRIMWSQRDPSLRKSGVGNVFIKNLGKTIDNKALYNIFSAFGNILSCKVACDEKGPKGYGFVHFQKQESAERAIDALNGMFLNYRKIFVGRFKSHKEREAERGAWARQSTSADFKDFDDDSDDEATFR
AGAUAGA: -0.0627
UAGAUCC: -0.0337
UCUGCUC: -0.49
CGUGUAU: -0.345
CCAAAAA: 28
GCAAAUA: 0.318
AAGACUA: 0.378
ACUGAUG: -0.175
AUAAUAC: 0.106
AUACUAC: -0.215
CCUGGCA: -0.229
GCAGGAU: 0.206
GCAAUCA: 0.233
UACUGUU: -0.271
AGAUUAU: -0.104
UGGGACU: 0.283
GUUUCAG: -0.315
CCCCGAA: -0.0391
ACUGCGG: 0.18
ACUGCUU: -0.275

For quick reference, copied from above (block 1):
GAAGAGCC: 0.172
AATGACCG: 0.103
CTGAGCCA: 0.00169
ACAGGGCG: 0.239
ATGTATCG: -0.0772
TCATTCAA: -0.166
GCGACCTA: 0.106
AACAGGTG: -0.281
CCGGAAGA: 0.121
CAAGCCGA: 0.12
